Measured values gathered from unrelated publications.
Parts stem from different laboratories: compare values within a part only.
Chain of UniProt Q8IZP9 (whole entry, looked up): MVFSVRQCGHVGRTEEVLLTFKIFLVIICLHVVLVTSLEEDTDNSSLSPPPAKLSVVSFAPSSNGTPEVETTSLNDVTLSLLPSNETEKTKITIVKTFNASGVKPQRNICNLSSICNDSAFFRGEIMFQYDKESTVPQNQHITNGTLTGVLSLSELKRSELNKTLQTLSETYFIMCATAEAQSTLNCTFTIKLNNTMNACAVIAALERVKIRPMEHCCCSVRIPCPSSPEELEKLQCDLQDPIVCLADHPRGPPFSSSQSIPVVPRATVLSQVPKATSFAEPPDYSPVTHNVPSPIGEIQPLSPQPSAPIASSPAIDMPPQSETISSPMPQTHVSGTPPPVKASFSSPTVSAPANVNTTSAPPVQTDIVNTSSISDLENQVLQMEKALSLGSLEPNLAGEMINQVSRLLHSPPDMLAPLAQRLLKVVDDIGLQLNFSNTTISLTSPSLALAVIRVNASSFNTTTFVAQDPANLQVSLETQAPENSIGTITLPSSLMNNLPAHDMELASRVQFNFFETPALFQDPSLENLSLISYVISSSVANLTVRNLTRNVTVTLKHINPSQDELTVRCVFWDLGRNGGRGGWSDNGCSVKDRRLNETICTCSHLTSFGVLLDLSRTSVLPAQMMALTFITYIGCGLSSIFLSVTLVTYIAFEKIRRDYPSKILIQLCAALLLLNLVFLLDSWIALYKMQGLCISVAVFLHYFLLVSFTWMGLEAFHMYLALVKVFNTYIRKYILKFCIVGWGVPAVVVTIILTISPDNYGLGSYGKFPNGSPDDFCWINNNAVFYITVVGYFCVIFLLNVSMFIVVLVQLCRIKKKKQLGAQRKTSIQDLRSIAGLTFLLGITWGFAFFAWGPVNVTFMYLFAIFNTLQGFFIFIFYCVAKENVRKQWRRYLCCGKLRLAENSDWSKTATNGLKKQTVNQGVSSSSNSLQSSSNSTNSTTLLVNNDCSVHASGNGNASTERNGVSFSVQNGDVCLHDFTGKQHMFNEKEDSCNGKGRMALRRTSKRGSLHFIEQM
Chain of UniProt O14842 (whole entry, looked up): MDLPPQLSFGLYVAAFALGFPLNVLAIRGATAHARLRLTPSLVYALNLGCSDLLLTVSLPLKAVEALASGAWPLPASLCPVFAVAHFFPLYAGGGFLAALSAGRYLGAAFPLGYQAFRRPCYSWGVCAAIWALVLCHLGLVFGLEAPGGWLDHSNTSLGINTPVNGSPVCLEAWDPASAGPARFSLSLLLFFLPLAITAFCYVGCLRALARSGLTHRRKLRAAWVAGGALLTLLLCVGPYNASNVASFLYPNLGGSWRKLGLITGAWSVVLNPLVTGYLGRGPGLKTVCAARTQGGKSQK
Chain of UniProt Q8NE63 (whole entry, looked up): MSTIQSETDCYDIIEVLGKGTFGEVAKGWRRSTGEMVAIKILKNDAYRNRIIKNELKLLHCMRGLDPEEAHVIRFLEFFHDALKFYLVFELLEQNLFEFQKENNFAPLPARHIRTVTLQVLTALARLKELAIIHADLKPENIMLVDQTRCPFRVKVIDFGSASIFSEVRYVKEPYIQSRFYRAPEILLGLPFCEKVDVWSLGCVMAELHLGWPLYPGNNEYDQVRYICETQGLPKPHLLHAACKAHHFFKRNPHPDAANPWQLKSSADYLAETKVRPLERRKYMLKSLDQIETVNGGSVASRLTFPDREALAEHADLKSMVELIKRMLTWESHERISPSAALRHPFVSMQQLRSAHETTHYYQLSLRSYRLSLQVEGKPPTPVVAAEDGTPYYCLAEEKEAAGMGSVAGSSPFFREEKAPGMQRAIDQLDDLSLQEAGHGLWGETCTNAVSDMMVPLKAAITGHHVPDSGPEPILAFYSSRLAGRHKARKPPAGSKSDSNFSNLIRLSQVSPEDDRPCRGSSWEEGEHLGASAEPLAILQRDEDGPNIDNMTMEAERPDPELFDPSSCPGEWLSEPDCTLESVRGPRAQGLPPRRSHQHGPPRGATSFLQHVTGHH
Chain of UniProt P41743 (whole entry, looked up): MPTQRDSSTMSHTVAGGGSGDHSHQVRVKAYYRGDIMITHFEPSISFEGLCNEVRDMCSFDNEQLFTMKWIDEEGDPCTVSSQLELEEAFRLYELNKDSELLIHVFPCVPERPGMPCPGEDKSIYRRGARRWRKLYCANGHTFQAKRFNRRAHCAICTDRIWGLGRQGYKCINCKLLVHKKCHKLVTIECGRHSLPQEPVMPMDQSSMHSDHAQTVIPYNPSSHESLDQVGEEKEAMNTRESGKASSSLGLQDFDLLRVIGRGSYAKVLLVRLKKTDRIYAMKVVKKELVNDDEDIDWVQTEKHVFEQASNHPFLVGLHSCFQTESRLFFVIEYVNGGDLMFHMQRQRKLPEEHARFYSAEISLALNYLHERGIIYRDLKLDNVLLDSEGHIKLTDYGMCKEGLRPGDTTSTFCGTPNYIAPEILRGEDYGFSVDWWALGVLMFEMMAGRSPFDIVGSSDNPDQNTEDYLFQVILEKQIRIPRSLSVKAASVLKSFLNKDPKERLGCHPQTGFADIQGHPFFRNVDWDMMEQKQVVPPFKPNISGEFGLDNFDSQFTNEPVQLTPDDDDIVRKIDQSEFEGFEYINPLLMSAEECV
Chain of UniProt O76039 (whole entry, looked up): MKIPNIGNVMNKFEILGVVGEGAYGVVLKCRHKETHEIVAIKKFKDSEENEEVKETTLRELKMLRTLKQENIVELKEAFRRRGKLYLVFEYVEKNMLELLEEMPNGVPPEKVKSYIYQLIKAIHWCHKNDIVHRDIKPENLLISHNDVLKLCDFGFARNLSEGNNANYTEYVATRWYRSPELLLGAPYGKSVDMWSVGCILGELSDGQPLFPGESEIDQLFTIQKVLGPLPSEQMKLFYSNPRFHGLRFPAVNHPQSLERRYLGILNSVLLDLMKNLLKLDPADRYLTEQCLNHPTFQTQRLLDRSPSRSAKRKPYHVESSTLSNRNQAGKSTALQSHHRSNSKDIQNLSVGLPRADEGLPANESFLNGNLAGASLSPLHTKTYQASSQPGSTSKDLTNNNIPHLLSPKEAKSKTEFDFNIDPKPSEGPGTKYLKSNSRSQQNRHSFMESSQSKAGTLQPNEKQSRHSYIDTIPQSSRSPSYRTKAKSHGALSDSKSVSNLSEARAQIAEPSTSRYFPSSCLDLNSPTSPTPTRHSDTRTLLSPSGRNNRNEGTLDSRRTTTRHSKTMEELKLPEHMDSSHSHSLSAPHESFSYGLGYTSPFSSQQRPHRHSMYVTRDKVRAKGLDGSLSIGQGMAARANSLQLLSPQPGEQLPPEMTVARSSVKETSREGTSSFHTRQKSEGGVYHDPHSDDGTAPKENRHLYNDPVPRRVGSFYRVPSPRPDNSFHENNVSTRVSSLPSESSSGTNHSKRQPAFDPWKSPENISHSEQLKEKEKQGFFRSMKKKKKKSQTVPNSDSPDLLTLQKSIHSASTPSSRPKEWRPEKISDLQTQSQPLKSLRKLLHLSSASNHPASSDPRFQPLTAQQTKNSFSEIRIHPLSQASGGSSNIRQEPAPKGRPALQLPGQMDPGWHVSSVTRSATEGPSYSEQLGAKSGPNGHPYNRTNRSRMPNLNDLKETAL
Chain of UniProt O96017 (whole entry, looked up): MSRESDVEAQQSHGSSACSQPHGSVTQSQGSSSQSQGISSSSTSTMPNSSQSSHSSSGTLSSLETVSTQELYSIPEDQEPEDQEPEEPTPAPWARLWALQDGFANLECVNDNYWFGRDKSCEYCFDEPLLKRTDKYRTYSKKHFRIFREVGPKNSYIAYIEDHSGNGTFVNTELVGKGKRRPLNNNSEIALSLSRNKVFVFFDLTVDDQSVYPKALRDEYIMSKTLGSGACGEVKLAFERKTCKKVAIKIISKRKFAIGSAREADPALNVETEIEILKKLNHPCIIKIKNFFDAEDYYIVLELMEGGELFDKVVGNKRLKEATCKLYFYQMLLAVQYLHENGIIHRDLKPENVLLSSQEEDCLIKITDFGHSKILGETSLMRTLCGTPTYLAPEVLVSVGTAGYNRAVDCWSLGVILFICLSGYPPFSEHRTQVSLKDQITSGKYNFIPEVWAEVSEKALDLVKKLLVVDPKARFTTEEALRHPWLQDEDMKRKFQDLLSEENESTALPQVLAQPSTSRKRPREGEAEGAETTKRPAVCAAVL
Chain of UniProt P25106 (whole entry, looked up): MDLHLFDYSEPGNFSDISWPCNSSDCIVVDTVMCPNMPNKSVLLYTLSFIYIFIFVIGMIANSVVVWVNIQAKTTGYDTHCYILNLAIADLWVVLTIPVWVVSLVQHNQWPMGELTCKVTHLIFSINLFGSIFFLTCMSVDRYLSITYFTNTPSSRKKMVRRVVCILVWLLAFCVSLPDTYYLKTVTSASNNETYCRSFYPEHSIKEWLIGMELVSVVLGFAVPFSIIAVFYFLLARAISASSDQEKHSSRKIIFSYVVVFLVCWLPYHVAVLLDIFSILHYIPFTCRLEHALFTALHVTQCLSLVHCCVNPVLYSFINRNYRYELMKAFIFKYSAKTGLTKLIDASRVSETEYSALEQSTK

Study 1
SMILES: NC(N)=NC(=O)c1nc(Cl)c(N2CCCCCC2)nc1N
Read-out: β-arrestin recruitment
Action: agonist
Method: PRESTO-Tango
Tested at: 10 µM
Relative to: untreated
target | fold over basal
ACKR3 (Homo sapiens, UniProt P25106) | 7.61
HTR4 (Homo sapiens, UniProt Q13639) | 1.07
ADGRG2 (Homo sapiens, UniProt Q8IZP9) | 0.99
FFAR1 (Homo sapiens, UniProt O14842) | 1.44 fold
ADRB1 (Homo sapiens, UniProt P08588) | 1.07
P2Y purinoceptor 6 (P2RY6, Homo sapiens, UniProt Q15077) | 1.1
Mas-related G-protein coupled receptor MRG (MAS1L, Homo sapiens, UniProt P35410) | 0.42
MCHR2 (Homo sapiens, UniProt Q969V1) | 0.81
G-protein coupled receptor 83 (GPR83, Homo sapiens, UniProt Q9NYM4) | 0.64

Study 2
Compound: CC(C)S(=O)(=O)c1ccc2nccc(Nc3ccc4sc(C5CCCC5)nc4c3)c2c1
Read-out: enzyme activity
Action: inhibitor
Tested at: 1 µM
target | activity vs control
TAOK1 (Homo sapiens, UniProt Q7L7X3) | 99%
Cyclin-dependent kinase 1, with cyclin B (CDK1, Homo sapiens, UniProt P06493) | 80.5%
EIF2AK1 (Homo sapiens, UniProt Q9BQI3) | 122%
TTBK1 (Homo sapiens, UniProt Q5TCY1) | 100%
CAMK1G (Homo sapiens, UniProt Q96NX5) | 108%

Study 3
SMILES: Cn1nc(C(F)(F)F)cc1-c1cnc(N2CCc3cc(S(=O)(=O)Nc4c(F)cc(Cl)cc4F)cc(N4CCCC4=O)c32)nc1
Method: competition with immobilised ligand
Tested at: 1 µM
target | read-out | remaining binding [%]
CHEK2 (Homo sapiens, UniProt O96017) | cell-free assay | 100
CDK18 (Homo sapiens, UniProt Q07002) | cell-free assay | 100
PRKCI (Homo sapiens, UniProt P41743) | cell-free assay | 94
WNK1 (Homo sapiens, UniProt Q9H4A3) | cell-free assay | 98
HIPK4 (Homo sapiens, UniProt Q8NE63) | cell-free assay | 100
PIK3CA (Homo sapiens, UniProt P42336, M1043I) | cell-free assay | 89
CSNK1G3 (Homo sapiens, UniProt Q9Y6M4) | cell-free assay | 81
MAP3K12 (Homo sapiens, UniProt Q12852) | cell-free assay | 72
KIT (Homo sapiens, UniProt P10721, V559D) | cell-free assay | 99
DCLK1 (Homo sapiens, UniProt O15075) | cell-free assay | 93
TLK2 (Homo sapiens, UniProt Q86UE8) | cell-free assay | 94
ULK2 (Homo sapiens, UniProt Q8IYT8) | cell-free assay | 74
PLK4 (Homo sapiens, UniProt O00444) | cell-free assay | 77
STK17A (Homo sapiens, UniProt Q9UEE5) | cell-free assay | 83
CDKL5 (Homo sapiens, UniProt O76039) | binding | 91

Study 4
Target: Calcium/calmodulin-dependent protein kinase type II subunit alpha (CAMK2A, Homo sapiens, UniProt Q9UQM7)
Chain of UniProt Q9UQM7 (whole entry, looked up): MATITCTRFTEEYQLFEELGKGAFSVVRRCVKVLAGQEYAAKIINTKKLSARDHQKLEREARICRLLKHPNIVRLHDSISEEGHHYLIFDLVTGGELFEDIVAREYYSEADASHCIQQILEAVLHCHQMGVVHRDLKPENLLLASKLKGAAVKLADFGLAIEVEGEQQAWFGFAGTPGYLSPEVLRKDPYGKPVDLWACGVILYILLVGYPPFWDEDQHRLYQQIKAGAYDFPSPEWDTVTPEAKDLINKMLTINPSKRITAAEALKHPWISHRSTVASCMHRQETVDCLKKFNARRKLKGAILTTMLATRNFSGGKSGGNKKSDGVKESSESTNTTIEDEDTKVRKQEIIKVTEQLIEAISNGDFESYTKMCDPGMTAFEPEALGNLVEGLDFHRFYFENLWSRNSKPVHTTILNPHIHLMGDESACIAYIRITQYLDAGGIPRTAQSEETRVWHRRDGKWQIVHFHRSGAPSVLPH
Read-out: enzyme activity
Action: inhibitor
Tested at: 10 µM
Structure (SMILES) | inhibition [%]
CC(C)=CCc1cc2c(=O)cc(-c3ccc(O)cc3)oc2cc1O | -23
C[C@H](CC[C@@H](O[C@@H]1O[C@H](CO[C@@H]2O[C@H](CO)[C@@H](O)[C@H](O)[C@H]2O)[C@@H](O)[C@H](O)[C@H]1O)C(C)(C)O)[C@H]1CC[C@@]2(C)[C@@H]3CC=C4[C@@H](CC[C@H](O[C@@H]5O[C@H](CO)[C@@H](O)[C@H](O)[C@H]5O)C4(C)C)[C@]3(C)[C@H](O)C[C@]12C | 19
COc1c(OCCCN2CCOCC2)ccc2c1N=C(NC(=O)c1cnc(N)nc1)N1CCN=C21 | 0
CCOC(=O)C1=C[C@@H](OC(CC)CC)[C@H](NC(C)=O)[C@@H](N)C1 | -7
CN(Cc1ccc(C(C)(C)C)cc1)Cc1cccc2ccccc12 | -1
C=C1CCC[C@]2(C)C[C@]3(O)OC(=O)C(C)=C3C[C@@H]12 | 3

Repeated from above (study 3):
target | read-out | remaining binding [%]
DCLK1 (Homo sapiens, UniProt O15075) | cell-free assay | 93
TLK2 (Homo sapiens, UniProt Q86UE8) | cell-free assay | 94
ULK2 (Homo sapiens, UniProt Q8IYT8) | cell-free assay | 74
PLK4 (Homo sapiens, UniProt O00444) | cell-free assay | 77
STK17A (Homo sapiens, UniProt Q9UEE5) | cell-free assay | 83
